{"data": "Experimental data from different studies", "note": "Each numbered part is a random draw from the data of one study; scales do not carry over between parts."}
{"data": "Series 1", "target": "Centromere-binding protein 1, full length, His-tagged (CBF1, Saccharomyces cerevisiae, UniProt P17106, residues 1-351)", "method": "competition protein-binding microarray", "molecule type": "double-stranded DNA, one strand shown", "sample": "in vitro", "tested at": "2 µM", "setting": "whole 60-bp probe, lowest competitor level", "added": "Pho4 competitor, 0.05 µM", "reading": "higher = stronger binding", "UniProt P17106, sequence (whole entry, looked up)": "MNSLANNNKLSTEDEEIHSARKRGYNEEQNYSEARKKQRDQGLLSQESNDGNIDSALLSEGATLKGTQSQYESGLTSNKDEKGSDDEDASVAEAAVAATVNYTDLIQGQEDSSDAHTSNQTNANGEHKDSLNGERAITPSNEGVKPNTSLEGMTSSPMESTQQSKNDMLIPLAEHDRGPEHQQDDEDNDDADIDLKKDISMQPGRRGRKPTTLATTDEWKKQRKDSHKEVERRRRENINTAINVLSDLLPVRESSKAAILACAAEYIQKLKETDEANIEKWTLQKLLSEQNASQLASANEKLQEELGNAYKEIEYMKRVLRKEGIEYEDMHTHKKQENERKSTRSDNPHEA"}
{"Oligonucleotide": "GAGTCATAAGCATAACATGTGGTTCCAGAAGCACTTGTCTTGATTCGCTTGACGCTGCTG", "fluorescence intensity [a.u.]": 140}
{"Oligonucleotide": "CTTTCCCGATCTTGAAGTGTGGGTGTAGCACATTTGGTCTTGATTCGCTTGACGCTGCTG", "fluorescence intensity [a.u.]": 76.7}
{"Oligonucleotide": "CAACTTCTTTTATTGCACGTACCTTTTGGACTGGTTGTCTTGATTCGCTTGACGCTGCTG", "fluorescence intensity [a.u.]": 94.3}
{"data": "Series 2", "target": "Interferon regulatory factor 3, full length, phosphomimetic (IRF3, Homo sapiens, UniProt Q14653, residues 1-427, S386D/S396D/S398D/S402D/T404D/S405D)", "method": "protein-binding microarray", "molecule type": "double-stranded DNA, one strand shown", "sample": "in vitro", "tested at": "2540 nM top", "setting": "60-bp whole probe", "added": "salmon DNA 0.4 mg/ml", "baseline": "random background probes", "reading": "higher = stronger binding", "Residues (chain)": "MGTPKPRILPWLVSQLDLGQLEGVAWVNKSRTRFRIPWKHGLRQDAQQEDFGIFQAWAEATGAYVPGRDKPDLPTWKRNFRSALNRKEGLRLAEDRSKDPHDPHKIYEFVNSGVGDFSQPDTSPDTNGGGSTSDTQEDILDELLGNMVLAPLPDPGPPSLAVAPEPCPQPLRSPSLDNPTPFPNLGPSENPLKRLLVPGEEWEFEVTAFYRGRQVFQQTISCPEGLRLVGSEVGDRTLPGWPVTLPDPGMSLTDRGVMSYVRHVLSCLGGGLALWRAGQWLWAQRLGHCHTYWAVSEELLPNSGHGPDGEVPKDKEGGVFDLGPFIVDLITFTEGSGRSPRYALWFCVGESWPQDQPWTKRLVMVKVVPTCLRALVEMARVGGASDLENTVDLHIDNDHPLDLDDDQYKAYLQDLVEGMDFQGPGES"}
{"Oligonucleotide": "GCCTAGCACAGAGATGTGGGACTCACCTAGTGCTAGGTCTTGATTCGCTTGACGCTGCTG", "fitted relative affinity": "-0.551 z-score"}
{"Oligonucleotide": "GCCTAGCACGTAAACCATCCAAATGTTATGTGCTAGGTCTTGATTCGCTTGACGCTGCTG", "fitted relative affinity": "0.519 z-score"}
{"Oligonucleotide": "GCCTAGCACTACGATTCCAGTTTCGAGACGTGCTAGGTCTTGATTCGCTTGACGCTGCTG", "fitted relative affinity": "3.01 z-score"}
{"Oligonucleotide": "GCCTAGCACTCAGGTCTCTTGTTCTCACTGTGCTAGGTCTTGATTCGCTTGACGCTGCTG", "fitted relative affinity": "0.222 z-score"}
{"data": "Series 3", "target": "Histone acetyltransferase KAT6A, winged helix 1, GST fusion (KAT6A, Homo sapiens, UniProt Q92794, residues 1-85)", "method": "protein binding microarray", "molecule type": "double-stranded DNA, one strand shown", "sample": "in vitro", "tested at": "not given", "setting": "8-mer, flanks averaged, mean of 2 arrays, mostly near background", "baseline": "not given", "reading": "higher = stronger binding", "Target sequence (chain)": "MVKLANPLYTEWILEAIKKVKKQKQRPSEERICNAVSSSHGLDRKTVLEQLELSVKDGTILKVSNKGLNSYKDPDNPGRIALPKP"}
{"Oligonucleotide": "AACTAAAC", "E-score": -0.141}
{"Oligonucleotide": "CGCTCCTA", "E-score": 0.134}
{"Oligonucleotide": "CCTGGGGA", "E-score": -0.26}
{"data": "Further values, each from its own experiment"}
{"Molecule": "PhoQ, residues 284 288 289 292 302 303 AGGLSV", "target": "PhoP, residues 12 14 15 18 19 LFHKL (Escherichia coli, UniProt P23836)", "test": "Sort-seq, refers to: YFP reporter", "test system": "E. coli", "setting": "PhoQ-PhoP variant library, added: 10 µM Mg2+", "how to read": "baseline: high Mg2+ state, higher = stronger signaling", "quantity": "fold induction", "result": 3.17}
{"note": "Excerpt of the above (series 1):"}
{"Oligonucleotide": "CAACTTCTTTTATTGCACGTACCTTTTGGACTGGTTGTCTTGATTCGCTTGACGCTGCTG", "fluorescence intensity [a.u.]": 94.3}
